Published values gathered from unrelated publications.
Compare with care: the assays were run in different laboratories. Numbers after ± are the reported error.
CALCR: Calcitonin receptor (CALCR, Homo sapiens, UniProt P30988)

NC1=NC(=O)[C@H](CC(=O)Nc2ccc(SC(F)F)cc2)S1
EC50 (Piezo1 (Mus musculus, UniProt E2JF22); agonist): 12.9 ± 4.73 µM

Fc1cccc(COc2ccc(Nc3ncnc4ccc(-c5ccc(CN6CCCCC6)cc5)cc34)cc2Cl)c1
EC50 (Leishmania major; intracellular amastigote growth, luciferase; RAW264.7 macrophages): 5.5 µM

CSCC[C@H](NC(=O)[C@H](CC(C)C)NC(=O)CNC(=O)[C@H](Cc1ccccc1)NC(=O)[C@H](Cc1ccccc1)NC(=O)[C@@H](N)CCC(N)=O)C(N)=O
EC50 (TACR1 (Homo sapiens, UniProt P25103); calcium mobilization, Fura-2): 0.00126 µM

Cn1c(=O)n(C2CCC(=O)NC2=O)c2ccc(C3CCN(CC(=O)Nc4cccc(CS(=O)(=O)N5CC[C@H](Nc6cccc(-c7sc(C(=O)O)c(OCC(=O)O)c7Cl)c6)CC5(C)C)c4)CC3)cc21 (stereo partly shown)
EC50 (Serine/threonine-protein phosphatase 5 (Homo sapiens, UniProt P53041); phosphatase activity; with: DiFMUP substrate): > 10 µM

CC[C@H](C)[C@@H](C(=O)N[C@@H](CC(C)C)C(=O)N[C@@H](CO)C(=O)N[C@@H](CO)C(=O)N[C@H](C(=O)N[C@@H](CC(N)=O)C(=O)N[C@H](C(=O)NCC(=O)N[C@@H](CO)C(=O)N[C@@H](CC(N)=O)C(=O)N[C@H](C(=O)N1CCC[C@H]1C(N)=O)[C@@H](C)O)C(C)C)[C@@H](C)O)N(C)C(=O)[C@H](C)NC(=O)CN(C)C(=O)[C@H](Cc1ccccc1)NC(=O)[C@H](CO)NC(=O)[C@H](CO)NC(=O)[C@H](Cc1c[nH]cn1)NC(=O)[C@H](Cc1c[nH]cn1)NC(=O)[C@H](CC(C)C)NC(=O)[C@H](Cc1ccccc1)NC(=O)[C@H](CCC(=O)O)NC(=O)[C@H](C)NC(=O)[C@H](CC(C)C)NC(=O)[C@H](CCCNC(=N)N)NC(=O)[C@H](CCC(N)=O)NC(=O)[C@@H](NC(=O)[C@H](C)NC(=O)[C@@H]1CSSC[C@H](NC(=O)[C@H](CCCNC(=N)N)NC(=O)CC[C@H](NC(=O)CCCCCCCCCCCCCCCCCCC(=O)O)C(=O)O)C(=O)N[C@@H](CC(N)=O)C(=O)N[C@@H]([C@@H](C)O)C(=O)N[C@@H](C)C(=O)N[C@@H]([C@@H](C)O)C(=O)N1)[C@@H](C)O
EC50 (CALCR; cAMP, agonist): 7.24e-05 µM

O=Cc1ccc([N+](=O)[O-])c(OS(=O)(=O)c2cccc(OC(F)F)c2)c1
EC50 (YWHAG/RELA, phospho-Ser45 p65 peptide (Homo sapiens, UniProt P61981+Q04206); ternary complex formation, stabilizer, fluorescence anisotropy): > 1000 µM

CCc1cc(O)cc2c(/C=N/NC(=N)NCCc3ccc(Cl)cc3)c[nH]c12
EC50 (RXFP4 (Homo sapiens, UniProt Q8TDU9, L118S); agonist): 0.00309 µM

O=C1C[C@H](c2nc(-c3ccc(F)c4cn[nH]c34)no2)CCCN1c1ccc(F)cc1 (racemic)
EC50 (CNR2 (Homo sapiens, UniProt P34972, H95A); cAMP, agonist, luciferase): 0.851 µM

CC(=O)NCCN(c1nc(N2CC3C(CCOc4cc(-c5scnc5C)ccc4CNC(=O)[C@@H]4C[C@@H](O)CN4C(=O)[C@@H](NC(=O)C4(F)CC4)C(C)(C)C)C3C2)nc(N2CC(n3ccnc3)C2)n1)C(C)C (stereo partly shown)
EC50 (VHL/BRD9 (Homo sapiens, UniProt P40337+Q9H8M2); ternary complex formation, NanoBiT; HEK293T; 2 h, with: MLN4924 2 µM): 0.464 µM

CC[C@H](C)[C@@H](C(=O)N[C@@H](CC(C)C)C(=O)N[C@@H](CO)C(=O)N[C@@H](CO)C(=O)N[C@H](C(=O)N[C@@H](CCC(=O)O)C(=O)N[C@H](C(=O)NCC(=O)N[C@@H](CO)C(=O)N[C@@H](CC(N)=O)C(=O)N[C@H](C(=O)N1C[C@H](O)C[C@H]1C(N)=O)[C@@H](C)O)C(C)C)[C@@H](C)O)N(C)C(=O)[C@H](C)NC(=O)CN(C)C(=O)[C@H](Cc1ccccc1)NC(=O)[C@H](CO)NC(=O)[C@H](CO)NC(=O)[C@H](CCCNC(=N)N)NC(=O)[C@H](CCC(N)=O)NC(=O)[C@H](CC(C)C)NC(=O)[C@H](Cc1ccccc1)NC(=O)[C@H](CC(=O)O)NC(=O)[C@H](C)NC(=O)[C@H](CC(C)C)NC(=O)[C@H](CCCNC(=N)N)NC(=O)[C@H](CCC(N)=O)NC(=O)[C@@H](NC(=O)[C@H](C)NC(=O)[C@@H]1CSSC[C@H](NC(=O)[C@H](CCCNC(=N)N)NC(=O)CC[C@H](NC(=O)CCCCCCCCCCCCCCCCCCC(=O)O)C(=O)O)C(=O)N[C@@H](CC(N)=O)C(=O)N[C@@H]([C@@H](C)O)C(=O)N[C@@H](C)C(=O)N[C@@H]([C@@H](C)O)C(=O)N1)[C@@H](C)O
EC50 (CALCR; cAMP, agonist): 0.000126 µM

O=C(c1cccc(-c2ccc3ncnc(Nc4ccc(OCc5cccc(F)c5)c(Cl)c4)c3c2)c1)N1CCOCC1
EC50 (Leishmania major; intracellular amastigote growth, luciferase; RAW264.7 macrophages): > 15 µM

CC[C@H](C)[C@@H](C(=O)N[C@@H](CC(C)C)C(=O)N[C@@H](CO)C(=O)N[C@@H](CO)C(=O)N[C@H](C(=O)N[C@@H](CCC(=O)O)C(=O)N[C@H](C(=O)NCC(=O)N[C@@H](CO)C(=O)N[C@@H](CC(N)=O)C(=O)N[C@H](C(=O)N1C[C@H](O)C[C@H]1C(N)=O)[C@@H](C)O)C(C)C)[C@@H](C)O)N(C)C(=O)[C@H](C)NC(=O)CN(C)C(=O)[C@H](Cc1ccccc1)NC(=O)[C@H](CO)NC(=O)[C@H](CO)NC(=O)[C@H](CCCNC(=N)N)NC(=O)[C@H](CCC(N)=O)NC(=O)[C@H](CC(C)C)NC(=O)[C@H](Cc1ccccc1)NC(=O)[C@H](Cc1c[nH]cn1)NC(=O)[C@H](C)NC(=O)[C@H](CC(C)C)NC(=O)[C@H](CCCNC(=N)N)NC(=O)[C@H](CCC(=O)O)NC(=O)[C@@H](NC(=O)[C@H](C)NC(=O)[C@@H]1CNC(=O)C[C@H](NC(=O)[C@H](CCCNC(=N)N)NC(=O)CC[C@H](NC(=O)CCCCCCCCCCCCCCCCCCC(=O)O)C(=O)O)C(=O)NCC(=O)N[C@@H]([C@@H](C)O)C(=O)N[C@@H](C)C(=O)N[C@@H]([C@@H](C)O)C(=O)N1)[C@@H](C)O
EC50 (CALCR; cAMP, agonist): 1.07 µM

Cc1ncsc1-c1ccc(CNC(=O)[C@@H]2C[C@@H](O)CN2C(=O)[C@@H](NC(=O)C2(F)CC2)C(C)(C)C)c(OCCC2CCN(c3nc(NCC(C)(C)C4(O)CCOC4)nc(N4CCC[C@H]4Cn4ccnn4)n3)CC2)c1 (stereo partly shown)
EC50 (VHL/BRD9, with Elongin B/C (Homo sapiens, UniProt P40337+Q9H8M2); ternary complex formation, AlphaScreen; with: 50 nM His-BRD9 and 20 nM biotin-VCB): 0.037 µM

For quick reference, copied from above:
CC[C@H](C)[C@@H](C(=O)N[C@@H](CC(C)C)C(=O)N[C@@H](CO)C(=O)N[C@@H](CO)C(=O)N[C@H](C(=O)N[C@@H](CC(N)=O)C(=O)N[C@H](C(=O)NCC(=O)N[C@@H](CO)C(=O)N[C@@H](CC(N)=O)C(=O)N[C@H](C(=O)N1CCC[C@H]1C(N)=O)[C@@H](C)O)C(C)C)[C@@H](C)O)N(C)C(=O)[C@H](C)NC(=O)CN(C)C(=O)[C@H](Cc1ccccc1)NC(=O)[C@H](CO)NC(=O)[C@H](CO)NC(=O)[C@H](Cc1c[nH]cn1)NC(=O)[C@H](Cc1c[nH]cn1)NC(=O)[C@H](CC(C)C)NC(=O)[C@H](Cc1ccccc1)NC(=O)[C@H](CCC(=O)O)NC(=O)[C@H](C)NC(=O)[C@H](CC(C)C)NC(=O)[C@H](CCCNC(=N)N)NC(=O)[C@H](CCC(N)=O)NC(=O)[C@@H](NC(=O)[C@H](C)NC(=O)[C@@H]1CSSC[C@H](NC(=O)[C@H](CCCNC(=N)N)NC(=O)CC[C@H](NC(=O)CCCCCCCCCCCCCCCCCCC(=O)O)C(=O)O)C(=O)N[C@@H](CC(N)=O)C(=O)N[C@@H]([C@@H](C)O)C(=O)N[C@@H](C)C(=O)N[C@@H]([C@@H](C)O)C(=O)N1)[C@@H](C)O
EC50 (CALCR; cAMP, agonist): 7.24e-05 µM
